Measured values gathered from unrelated publications.
Values joined by “and” are separate records of one study, mostly repeats; a detail may differ. ± gives the spread as reported.
UniProt Q9Y6I4, sequence (whole entry, looked up): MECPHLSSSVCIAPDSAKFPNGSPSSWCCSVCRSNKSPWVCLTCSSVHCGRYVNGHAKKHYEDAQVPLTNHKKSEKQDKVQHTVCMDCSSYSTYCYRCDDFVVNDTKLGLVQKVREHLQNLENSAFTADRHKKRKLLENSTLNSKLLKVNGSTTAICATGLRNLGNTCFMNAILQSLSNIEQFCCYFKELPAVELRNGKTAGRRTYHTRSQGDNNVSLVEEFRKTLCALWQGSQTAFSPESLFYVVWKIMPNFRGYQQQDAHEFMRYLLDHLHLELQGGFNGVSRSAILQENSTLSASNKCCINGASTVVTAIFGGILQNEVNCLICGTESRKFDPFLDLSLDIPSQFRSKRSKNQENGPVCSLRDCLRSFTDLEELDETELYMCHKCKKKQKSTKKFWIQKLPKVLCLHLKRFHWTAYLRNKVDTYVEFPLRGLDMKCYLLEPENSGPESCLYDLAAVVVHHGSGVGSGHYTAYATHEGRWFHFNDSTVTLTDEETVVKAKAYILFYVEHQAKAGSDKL

SMILES | tested on | test | test system | setting | how to read | measurement | value
O=C(NCCc1cccnc1)c1ccc([C@H]2[C@@H](F)[C@@H](F)C[C@@H](F)[C@H]2F)cc1 | – | hepatocyte stability | cryopreserved rat hepatocytes | 1 µM | – | hepatic clearance | 43 mL/min/kg
NC(=O)N1c2ccccc2CC(O)c2ccccc21 (centres unmarked) | – | population PK modelling | human patients, plasma | dose not given, weight-scaled, shared estimated exponent | – | volume of distribution | 39.8 L
O=C(NCC1CCOCC1)c1ccc(C2CCCCC2)cc1 | – | liver microsome stability | mouse liver microsomes | 1 µM | – | hepatic clearance | 82 mL/min/kg
CCO[C@H]1CCN(Cc2c(OC)cc(C)c3[nH]ccc23)[C@H](c2ccc(C(=O)O)cc2)C1 | – | – | PNH patients, active haemolysis | oral, 25 mg, 4 weeks, treatment | – | incidence of cough | 28.6%
C[C@H]1C=C(Cc2ccccc2)C(=O)O1 | – | soil adsorption | clay loam soil | pH 6.8, organic carbon 0.5 % | – | KFoc | 301 mL/g
CCCc1oc(CCC(=O)O)c(C(=O)O)c1C | – | ultrafiltration | normal rat serum | 37 °C | – | serum protein binding | 100%
O=C(COc1ccc(Cl)cc1)NC12CC(c3nnc([C@H]4C[C@@H](OC(F)(F)F)C4)o3)(C1)C2 | – | item: Headache | human | 100 mg once daily, 28 (unit not given) | – | adverse event incidence | 30%
COC1=C(OC)[C@H](O)[C@H](C/C=C(\C)CC/C=C(\C)CCC=C(C)C)[C@@H](C)C1=O | – | – | mouse, BALB/c, male, whole blood | oral, 50 mg/kg, 7 h | – | blood concentration | 20.2 nM and 17 nM
O=C(O)CCC(=O)O.[2H]C([2H])([2H])Oc1cc(C)c2[nH]ccc2c1CN1CC[C@@H](C2CC2)C[C@H]1c1ccc(C(=O)O)cc1 | – | – | healthy Chinese subjects | 400 mg, single ascending dose | – | TEAE elevated blood triglycerides | 50%
O=C(O)CCc1cnccn1 | Ubiquitin carboxyl-terminal hydrolase 3, ZnF-UBD domain (USP3, Homo sapiens, UniProt Q9Y6I4) | – | – | – | – | Kd | > 1 mM
CN(C)CCC(=O)Nc1ccc(C2CCCCC2)cc1 | – | liver microsome stability | human liver microsomes | 1 µM, without NADPH | – | hepatic clearance | 5.4 mL/min/kg
COc1ccc2[nH]c([S+]([O-])Cc3ncc(C)c(OC)c3C)nc2c1 (centres unmarked) | – | – | healthy Chinese volunteers, CYP2C19 rapid metabolizers | oral, 20 mg, enteric-coated tablets | – | t1/2 | 51 ± 30 min
CCN1/C(=C/C(C)=O)Sc2ccc(F)cc21 | – | – | cynomolgus monkey | oral, 100 mg/kg, 24 h post-dose | relative to: pre-dose | diastolic blood pressure change | 98.2 ± 8.8%
CCCOc1ccc(NC(=O)CN2CCN(C)CC2)cc1-c1nc(CC)c(CC)c(=O)[nH]1 | – | – | Chinese healthy male subjects | 10 mg, added: alcohol 0.5 g/kg | relative to: baseline | maximal pulse rate increase | 20.4 bpm
NC1(C(=O)N[C@@H](CCO)c2ccc(Cl)cc2)CCN(c2nc[nH]c3nccc2-3)CC1 | – | – | metastatic CRPC patients | 480 mg b.i.d., grade 3 to 4, treatment-related, added: enzalutamide 160 mg daily | – | incidence of Arthralgia | 0%
O=C(CC1CCOCC1)Nc1ccc(C2CCCCC2)cc1 | – | – | cryopreserved rat hepatocytes | 1 µM | – | hepatic clearance | 47 mL/min/kg
FC(F)(F)c1ccc(CNc2ccc(Cc3c[nH]c4ncc(Cl)cc34)cn2)cn1 | – | item: Vomiting | patients with advanced solid tumours, non-TGCT cohort | oral, 1000 mg/day, grade 3 or higher | – | treatment-related adverse events | 0%
CC(=O)N(C)C1CCN(c2cc(F)cc(NC(=O)c3cc4c(F)ccc(C)c4[nH]3)c2)C1 (centres unmarked) | – | – | CD1 mouse, plasma | intravenous, 1 mg/kg, 0.5 h | – | plasma concentration | 426 ng/mL
C=CC(=O)N(C)CCOc1c(N)ncnc1-c1cc(F)cc(NC(=O)c2ccc(C3CC3)cc2F)c1C | – | – | human, whole blood | oral, 100 mg once daily, day 1 | – | AUC | 315 ng·h/mL
C[Si](C)(C)O[Si](C)(C)O[Si](C)(C)C | – | IVIVE from S9 | rainbow trout (Oncorhynchus mykiss) | – | – | hepatic biotransformation rate constant | 0.298 h⁻¹ and 0.265 h⁻¹ and 0.297 h⁻¹
COc1cc(Nc2ncc3c(n2)-c2ccc(Cl)cc2C(c2c(F)cccc2OC)=NC3)ccc1C(=O)O | – | item: Hypoxia, all grades | cancer patients, phase 1/2 | oral, dose not given, added: pembrolizumab | – | patients with adverse event | 4%
Cc1cc(-c2nccc3c2ccn3CC(=O)Nc2ccc(-c3cnccn3)cn2)ccn1 | – | – | human | 15 mg once daily, multiple ascending dose | – | subjects with cardiac disorders | 0%
COc1cccc2c1C(=O)c1c(O)c3c(c(O)c1C2=O)C[C@@](O)(C(=O)CO)C[C@@H]3O[C@H]1C[C@H](NC(=O)[C@@H]2CCCN2C(=O)CNC(=O)[C@@H](N)CC(C)C)[C@H](O)[C@H](C)O1 | – | – | healthy mouse, plasma | intravenous, 23.6 mg/kg PhAc-ALGP-Dox | – | AUC | 0.09 µM·h
O=C(Nc1ccc(Cl)cc1)Nc1ccc(Cl)c(Cl)c1 | – | – | whole cow milk | 20 nM nominal | – | dose fraction in milk fat | 85.7%
CCc1cc(C(=O)NC)c2nccc(N3CCc4c(cc(Cn5ccnc5)cc4-c4cn(C)nc4C(F)(F)F)C3=O)c2c1 | – | – | Sprague Dawley rats | oral, 100 mg/kg twice daily, 7 days | – | serum CK activity | 108 ± 20.6 U/L

SMILES | tested on | test | test system | setting | how to read | measurement | value
CNCc1ccc(-c2[nH]c3cc(F)cc4c3c2CCNC4=O)cc1 | – | – | human patients | oral, dose not given, all grades, all doses | – | incidence of neutropenia | 17.9%
CC(C)n1c(Nc2cccnc2)nc2cnc(Nc3ccc(N4CCN(C)CC4)cc3)nc21 | – | item: eosinophil count increased | healthy male subjects | oral, 100 mg, study, added: itraconazole | – | subjects with adverse event | 0%
CN1CCN(C(=O)c2ccc(C3CCCCC3)cc2)CC1=O | – | hepatocyte stability | cryopreserved mouse hepatocytes | 1 µM | – | hepatic clearance | 48 mL/min/kg
CC(C)(C(=O)N1CCOc2c(C#N)cncc2C1)C(F)F | – | – | human, both sexes | oral, 10 mg single dose | – | subjects with presyncope TEAE | 0%
O=C(c1ccc(F)cc1)C1CCN(CCn2c(=O)[nH]c3ccccc3c2=O)CC1 | – | – | human liver microsomes | – | – | hepatic clearance | 14.2 mL/min/kg
C[C@@H](Nc1cc(F)cc(F)c1)c1cc(C(=O)N(C)C)cc2c(=O)cc(N3CCOCC3)oc12 | – | – | advanced solid tumour patients | oral, 60 mg twice daily, continuous monotherapy | – | dose interruption due to AE | 33.3%
C=CCN1CC(=O)N2[C@@H](Cc3ccc(O)cc3F)C(=O)N(Cc3cccc(N4CC(N5CCN(CC)CC5)C4)n3)C[C@@H]2N1C(=O)NCc1ccccc1 | – | item: Malaise | advanced solid tumour patients | oral, 100 mg twice daily, expansion part, grade ≥3 | – | treatment-related adverse events | 0%
Nc1nc2c(nc([N+](=O)[O-])n2[C@@H]2O[C@H](CO)[C@@H](O)[C@H]2O)c(=O)[nH]1 | – | depurination, RP-HPLC | citrate-phosphate buffer 0.5 mM | 145 min, pH 5, 37 °C | – | nucleoside remaining fraction | 0.838
C=CC(=O)NC1CCN(c2ncc3ncnc(Nc4ccc(Oc5ccc6c(c5)ncn6C)c(C)c4)c3n2)CC1 | – | item: total radioactivity | healthy male volunteers, faeces | oral solution, 60 mg, 680 h collection, 14C-labelled, geometric mean | – | dose recovered as radioactivity | 92.5%
CC(C)C[C@@H]1NC(=O)CNC(=O)[C@H](CC(N)=O)NC(=O)[C@H](CCCNC(=N)N)NC(=O)[C@H]([C@@H](C)O)NC(=O)[C@@H]2CSSC[C@@H]3NC(=O)[C@H]([C@@H](C)O)NC(=O)CNC(=O)CNC(=O)[C@H](C(C)C)NC(=O)[C@@H]4CSSC[C@H](NC(=O)[C@H]([C@@H](C)O)NC(=O)[C@H](CSSC[C@H](NC(=O)[C@H](C(C)C)NC(=O)[C@@H]5CCCN5C1=O)C(=O)NCC(=O)N[C@@H](CCC(=O)O)C(=O)N[C@@H]([C@@H](C)O)C(=O)N4)NC(=O)CNC(=O)[C@@H]1CCCN1C(=O)[C@H]([C@@H](C)O)NC(=O)[C@H](CC(N)=O)NC3=O)C(=O)N[C@@H](CO)C(=O)N[C@@H](Cc1c[nH]c3ccccc13)C(=O)N1CCC[C@H]1C(=O)N[C@@H](C(C)C)C(=O)N2 | – | HPLC | water | 180 µM, 14 days, 37 °C, deamidation stability | – | remaining peptide | 96.3 ± 0.7%
CN[C@H](CC(C)C)C(=O)N[C@H]1C(=O)N[C@@H](CC(N)=O)C(=O)N[C@H]2C(=O)N[C@H]3C(=O)N[C@H](C(=O)N[C@H](C(=O)O)c4cc(O)cc(O)c4-c4cc3ccc4O)[C@H](O)c3ccc(c(Cl)c3)Oc3cc2cc(c3O[C@@H]2O[C@H](CO)[C@@H](O)[C@H](O)[C@H]2O[C@H]2C[C@](C)(N)[C@H](O)[C@H](C)O2)Oc2ccc(cc2Cl)[C@H]1O | – | – | guinea pig, serum | intraperitoneal, 15 mg/kg single, 12 h | – | Cmin | 2.16 µg/mL
CCCCC[C@H](O)CC[C@@H]1[C@H]2Cc3cccc(OCC(=O)O)c3C[C@H]2C[C@H]1O | – | LC-MS/MS | Japanese PAH patients ≥56.7 kg, plasma | inhaled, 54 µg | – | geometric mean AUC(0-last) | 0.83 ng·h/mL
CSCC[C@H](NC(=O)CN)C(=O)N[C@@H](CCCNC(=N)N)C(=O)N[C@@H](Cc1c[nH]c2ccccc12)C(=O)N[C@@H](CO)C(=O)N[C@@H](CCCNC(=N)N)C(=O)N[C@@H](CCCCN)C(=O)N[C@@H](CCSC)C(=O)N1CCC[C@H]1C(=O)N[C@@H](CS)C(=O)N[C@H](C(=O)N[C@@H](CO)C(N)=O)C(C)C | – | 12G5 competition, SUP-T1 cells | human plasma | concentration not given, 2 h | – | remaining activity | 43 ± 3%
CCOc1c([C@H](C)n2nc(C)c3c(N)ncnc32)cc(Cl)c(F)c1[C@@H]1CNC(=O)C1 | – | – | patients, monotherapy | oral, 10 mg once daily, cycle 1 day 15 | – | Cmin | 104 ± 46 nM
CC(C)C[C@H](NC(=O)C[C@H](O)[C@H](CC(C)C)NC(=O)[C@H](Cc1c[nH]cn1)NC(=O)CNC(=O)[C@@H](NC(=O)[C@H](C)NC(=O)[C@H](Cc1c[nH]c2ccccc12)NC(=O)[C@H](CCC(N)=O)NC(=O)[C@@H](Cc1ccccc1)NC(=O)COCCOCCNC(=O)CCC(C(=O)O)N1CCN(CC(=O)O)CCN(CC(=O)O)CC1)C(C)C)C(N)=O (some centres unmarked) [lutetium-177 labelled] | – | – | female BALB/c nu/nu mice, spleen | intravenous, 50 pmol, 1 h | – | tissue uptake | 0.28 ± 0.06 %ID/g
CCCc1nn(C)c2c(=O)[nH]c(-c3cc(S(=O)(=O)N4CCN(C)CC4)ccc3OCC)nc12 | – | – | human, plasma | oral, 100 mg, geometric mean, added: placebo | – | AUC(0-22) | 1230 ng·h/mL
NC(=O)CCNC(=O)c1ccc(C2CCCCC2)cc1 | – | hepatocyte stability | cryopreserved human hepatocytes | 1 µM | – | hepatic clearance | 16 mL/min/kg
Cc1cc(C)c(CNC(=O)c2cc(Cl)c3c(c2C)O[C@@](C)([C@H]2CC[C@H](N(C)C)CC2)O3)c(=O)[nH]1 | – | item: Sepsis | human patients | oral, 200 mg once daily, 1 day onset day 14 | – | patients with grade ≥3 TEAE | 0%
COc1ncc(-c2nc3c(n2C(C)C)[C@H](c2ccc(Cl)cc2)N(c2cc(Cl)cn(C)c2=O)C3=O)c(OC)n1 | – | – | human patients, plasma | oral, 200 mg, high-dose arm, cycle 1 day 1 | – | AUC(0-t) geometric mean | 26300 ng·h/mL
Cl.[2H]C([2H])([2H])CC(=O)c1cnc(NC(=O)C2CC2)cc1Nc1cccc(-c2ncn(C([2H])([2H])[2H])n2)c1OC | – | geometric mean | human | oral, 10 mg once daily, day 7, fasted, liquid, multiple dose | – | elimination rate constant | 2e-05 s⁻¹
CC(C)C[C@H](NC(=O)C[C@H](O)[C@H](CC(C)C)NC(=O)[C@H](Cc1c[nH]cn1)NC(=O)CNC(=O)[C@@H](NC(=O)[C@H](C)NC(=O)[C@H](Cc1c[nH]c2ccccc12)NC(=O)[C@H](CCC(N)=O)NC(=O)[C@@H](Cc1ccccc1)NC(=O)COCCOCCNC(=O)CCC(C(=O)O)N1CCN(CC(=O)O)CCN(CC(=O)O)CCN(CC(=O)O)CC1)C(C)C)C(N)=O (some centres unmarked) [lutetium-177 labelled] | – | – | female BALB/c nu/nu mice, bone | intravenous, 50 pmol, 1 h | – | tissue uptake | 0.1 ± 0.08 %ID/g
CC(C)CCCC(C)C1CCC2C3CC=C4CC(OC(=O)CCCCC[N+]5=C(C=CC=C6N(C)c7ccccc7C6(C)C)C(C)(C)c6ccccc65)CCC4(C)C3CCC12C (centres unmarked) | – | HPLC | mouse serum | 5 h, 37 °C | – | degradation | ~65%
CCC(=O)N(CCC(c1ccc2c(c1)OCO2)c1ccccc1OC)Cc1ccccc1 (centres unmarked) | – | – | female athymic nude mouse, blood | i.p., 60 mg/kg twice daily, 14 days, group mean | – | LYMPH | 70%
O=C(CCC(C(=O)[O-])N1CCN(C(CCC(=O)NCC(O)CO)C(=O)[O-])Cc2cccc(n2)CN(C(CCC(=O)NCC(O)CO)C(=O)[O-])CC1)NCC(O)CO.[Gd+3] (centres unmarked) | – | ICP-MS | rat, femur bone marrow | intravenous, 0.6 mmol Gd/kg, 1 week | – | Gd concentration | 2.6 nmol/g
O=c1oc(=O)n(Cc2cc(C(F)(F)F)cc(C(F)(F)F)c2)c2ccccc12 | – | chemical stability, HPLC-MS | borate buffered saline | pH 10.2, no N-acetyl-lysine | – | degradation rate constant | 26.5 h⁻¹
